# Published values gathered from unrelated publications.
# Every numbered part comes from another study and shows a few of its results, in no order.

# Set 1 — method: RNA Bind-n-Seq; molecule type: RNA; sample: in vitro; concentration: 365 nM; reference: no-protein control; reading: higher = stronger binding
# Target: RNA binding protein fox-1 homolog 2, RRM domain, GST-SBP tag (RBFOX2, Homo sapiens, UniProt O43251-10, residues 100-194)
# Notes: natural RNA segment, single round, ends assumed
# Constant ends, left off below: GGGAGUUCUACAGUCCGACGAUC … UGGAAUUCUCGGGUGCCAA
# Residues (chain): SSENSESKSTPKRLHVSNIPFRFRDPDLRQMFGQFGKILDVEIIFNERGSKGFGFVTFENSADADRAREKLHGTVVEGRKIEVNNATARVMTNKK
Strand,RBNS enrichment (R)
CGUACGGAGGUGUGCAAUCCUGUGUCAGUCGCCUUGUGACACUGAAGUGGAUGAGUUAUAGAGGAGGCCCUCGAGGCUGACCCAAUACGGUUACUAAGGGAGACUACAGG,0.379
CCCUACUUCUGUGUGCUCGAGCUGCCCCAGCCAUCACUGAGCCCACUCAGGACUGCUCCUGGAAGACAUCUCAAGGUGGGAAGCCUGGCUUUCCUGGGCUUUGCUUUCUU,0.297
ACAGUGAGUUGAGUUGGCUCUCCCACAGUCUUUGAGGUGAAUUACAAAAGUCCAGCCAUUAUCAUCCUCCUGAGUUAUUUGAAAUGAUUUUUUUUGUACAUUUUGGCUGC,0.747
CCUAAGUUUUGAGGUGGGGUGAUGGCCCUCUACUUCCCUGUUUAUAGUCUAACUCACCUAUUAACCUCUCUCAUCCUGGGUCAUCCUCCCUCCUUUCUCAGUGUCUGAUU,0.486
AGCCCCCAGGAAGCCUGCUCCCCUCUCUGGCCCAUGGUCCUGCUUCAUGCUUUGGGUCAGGAGGCCAAAGCUGAUGUUCAGGCCCCACCCACUCCCUACAGUCCUCAGAC,0.369
GCUGCCUUUUAAAAAACCCACAAAAUGCUGAUUCAGUUCAAAAUUAAUGCAAAUGUUUCAAAACUGGGUUUCUGAUAUUUGUAAAUGUGUUUCUUUAUUAGAUAAGAGUG,0.846
CCAGCAUGGAAAGGUUCAGCUGGAGACAUUUCUGAAACAGACUACUUUACUUUGAAGCAAACGUCUUUUUUUUAAAGAUUGCUUCACCAAUGAUGCUGUCAGAUAUAUCU,1.18
UCUGACCCUUGGGCCUGGGCCUCUGCCCCUCCCAACCCAGCCCUCGUCUCCCUCGACAGCGCCCCUGCUGUCUUCCCCACCGCAGUCACCACCACCCGAAAUGCCACGUG,0.294
AAAACAGCUUGCACGGUGCUAAGCUGGGGCCCACCUAGCUUGUUUCAUUGUUGGGAAAUAAAACAUCAAGAACAAAAACAUUUGUGGUUGUGAGAAUGUCUCAGUGUAAU,1.23
CUGCUGGAGGCAGGGCACCUGCUGCGACCCAGAUUCUUCUGCAGGAUGUGUCUGUCUUUGUCACGGUGGACAGAGGGUGACAUCAUAGGAGCAGCUCGCUGGCCAGAAGG,0.42
UAAUCUGAUGUAUAAUGUAAUGUUUUUAUUUCAAUUGUUUAUAUGGAUAAUCUGAGCAGGUACAUUUCUGAUUCUGAUUGCUAUCAGCAAUGCCCCAAACUUUCUCAUAA,0.486
CAAGAGGAAGCUAAAAACCGAGAUCAUAGGAAAAUUGGCAGGGACCAAGAACUAUAUUUCUUUCAUGAACUCAGCCCUGGAAGUUGCUUUUUUCUGCCAAAAGGAGCCUA,0.686

# Set 2 — method: protein-binding microarray; molecule type: double-stranded DNA, one strand shown; sample: in vitro; concentration: 0.8 µM; notes: whole 60-bp probe, no competitor; reading: higher = stronger binding; constant ends, left off below: … GTCTTGATTCGCTTGACGCTGCTG
# Target: Centromere-binding protein 1, full length, N-terminal tag (CBF1, Saccharomyces cerevisiae, UniProt P17106, residues 1-351)
# Sequence of UniProt P17106 (whole entry, looked up): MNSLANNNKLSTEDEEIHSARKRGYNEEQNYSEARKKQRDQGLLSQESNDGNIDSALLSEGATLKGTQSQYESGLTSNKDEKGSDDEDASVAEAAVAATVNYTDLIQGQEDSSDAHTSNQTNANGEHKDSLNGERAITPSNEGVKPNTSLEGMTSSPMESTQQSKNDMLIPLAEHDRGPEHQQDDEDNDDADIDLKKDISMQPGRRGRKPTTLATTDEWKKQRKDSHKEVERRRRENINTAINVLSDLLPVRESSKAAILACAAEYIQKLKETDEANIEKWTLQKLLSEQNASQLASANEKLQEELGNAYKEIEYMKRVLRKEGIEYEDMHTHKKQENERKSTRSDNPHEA
Strand,fluorescence intensity [a.u.]
GAAACTTTTCAAACTCACCTGTTAGATGTCTCTTAG,522
GAATATACAACCAGGCACGGGACAACATCAAGATAG,1030
GAATCCGTGGATCGCCATGTGATATTTCTATTTTAG,1300
GAACAATTTTTATTTCTGATGACTTTGAAATTTTAG,517
CTATCATGAACGGTTTACGTGACTATTTTCACTTTC,651
GAATTAATATTTCAGTGGGTGACGTTAGGTAATTAG,551
GAACTACACGCGCACATGACGATAAAACTGGCCTAG,2360
GAAGAATCCTAATTCAACGTGAAATTGGTGGACTAG,541
CTAAGTTTTTTTCAGGTGATTATTTTACCGGGCTTC,700
CTATTGAGATTCGAGTTTTATATGATGGCAACATTC,540
CTAGAATAGACCGATAAGGTCACCTGTTAGTAATTC,3320
CTATTGGTCTTTCATCAGATGATATGCCAGATATTC,625
CTAAACTTGAAAAGCTGATGGGTGTCAAGCACGTTC,514
TGTACGAAGCTATTCCATGTGTCTATAGTAGTTAGG,559
CTATGGTATTCTGACAACGTGTTGTCATACCTGTTC,675
GAAGCATACACTTTACACATGGCTAACCCAATCTAG,555

# Set 3 — method: protein binding microarray; molecule type: double-stranded DNA, one strand shown; sample: in vitro; concentration: not given; reference: not given; reading: higher = stronger binding
# Target: Histone acetyltransferase KAT6A, both winged helices, GST fusion (KAT6A, Homo sapiens, UniProt Q92794, residues 1-181)
# Notes: 8-mer, flanks averaged, mean of 2 arrays, mostly near background
# Target sequence (chain): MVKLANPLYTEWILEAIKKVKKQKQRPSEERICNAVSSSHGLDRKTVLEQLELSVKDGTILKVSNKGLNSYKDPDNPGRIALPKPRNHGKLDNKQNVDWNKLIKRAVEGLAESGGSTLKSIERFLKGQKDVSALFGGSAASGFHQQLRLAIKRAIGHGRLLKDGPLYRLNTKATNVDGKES
Strand,E-score
CACACGCA,0.0302
ATTGACCC,-0.0169
GGGTAATA,-0.0779
GGTTTCTA,-0.0824
GGTAAGCA,-0.159
CATCAGCA,-0.101
ATTTTGAC,-0.0822
ATTATGGG,0.00384
GGTGGAGA,-0.159
CATGGTAA,-0.00541
CCAACACG,0.0261
CCCATAGG,-0.0918
CACAATAC,-0.0719
CTTACGCC,0.0777
AAGAAAAT,-0.0721
ATTCCCTC,-0.189
CAGGCGGA,0.144
GTACGGAC,0.222
GTGTTGCA,-0.0481
AAGTTCCA,-0.0475
ACGGTCTA,0.167
CTGAGGTA,-0.232
AAACTACG,0.0943
ACGTCCAT,-0.0524
AACCGCCT,0.127

# Set 4 — method: universal PBM; molecule type: double-stranded DNA, one strand shown; sample: in vitro; concentration: not given; reading: higher = stronger binding
# Target: Sal-like protein 4, full length isoform B (SALL4, Homo sapiens, UniProt Q9UJQ4-2, residues 1-616)
# Notes: 8-mer, flanks averaged, mean of replicates
# Target sequence (chain): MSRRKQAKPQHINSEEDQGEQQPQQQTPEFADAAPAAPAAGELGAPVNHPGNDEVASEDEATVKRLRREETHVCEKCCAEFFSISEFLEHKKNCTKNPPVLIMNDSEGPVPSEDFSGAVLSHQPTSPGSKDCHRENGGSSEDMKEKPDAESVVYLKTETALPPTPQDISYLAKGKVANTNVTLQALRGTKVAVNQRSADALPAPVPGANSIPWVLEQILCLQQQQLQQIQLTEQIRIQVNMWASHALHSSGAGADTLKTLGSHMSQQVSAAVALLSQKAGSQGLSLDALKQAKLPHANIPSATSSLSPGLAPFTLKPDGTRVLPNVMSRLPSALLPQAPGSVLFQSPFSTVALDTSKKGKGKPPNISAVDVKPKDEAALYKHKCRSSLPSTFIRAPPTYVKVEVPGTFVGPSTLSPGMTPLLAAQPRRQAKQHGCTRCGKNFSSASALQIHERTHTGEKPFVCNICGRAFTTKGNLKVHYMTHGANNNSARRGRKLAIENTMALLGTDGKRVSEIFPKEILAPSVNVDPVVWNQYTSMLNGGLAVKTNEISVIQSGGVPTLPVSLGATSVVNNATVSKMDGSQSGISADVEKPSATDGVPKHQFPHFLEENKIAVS
Strand,E-score
ATAGACCG,-0.0215
GATTAATA,0.381
ACAGCATA,0.244
AATCAACG,0.126
GTAGGGCA,-0.106
CATCGTCA,0.0638
GGAGCTAC,-0.144
ATAGGAAA,0.29
ACGAGTTA,0.147
CGTGCATC,-0.312
TCTCCGAA,-0.148
GCAAAGGC,-0.159
CAGAAAGC,-0.139
CGCTTTTC,-0.0714
AAGAAACG,-0.0261
ACATGCCC,-0.0196
CATCGGCG,-0.275
CCAACAAA,0.136
ATCACACC,-0.0639

# Set 5 — method: protein-binding microarray; molecule type: double-stranded DNA, one strand shown; sample: in vitro; concentration: 250 nM; notes: 60-bp whole probe; together with: salmon DNA 0.4 mg/ml; reference: random background probes; reading: higher = stronger binding; constant ends, left off below: GCCTAGCAC … GTCTTGATTCGCTTGACGCTGCTG
# Target: Interferon regulatory factor 5, full length, phosphomimetic (IRF5, Homo sapiens, UniProt Q13568-2, residues 1-514, K96S/S451D/S453D/S456D/S462D)
Strand,log fluorescence
TCACCTCTCACCTCGGCACTGTGCTAG,0.0296 z-score
TTAGTTCTCGGTATCGGTTAGTGCTAG,5.27 z-score
TTAGAACTGAGTATCCATTAGTGCTAG,0.112 z-score
TTTGCTTTCATTTATTTACTGTGCTAG,5.57 z-score
TAAGGTCTCCTTCTCCTTTAGTGCTAG,0.0635 z-score
TCAACTTTCTACGTCTGACTGTGCTAG,1.93 z-score
TCAAAAATCATTTTCTCACTGTGCTAG,1.05 z-score
GGGAGTGTCAATAATGACCACGTGCTA,0.00528 z-score
TCAGCTTTCCTTCTTGAACTGTGCTAG,1.02 z-score
TTAAGTATCGGGTTTCGGTTAGTGCTA,9.4 z-score
GACGGTTTCCTTCTCCTGAGGTGCTAG,0.733 z-score
GACGGTAACCTTTTCCTGACGTGCTAG,-0.0685 z-score
TTAGATTTCAGTTCCGATTAGTGCTAG,2.98 z-score
TCACACTTGTGTTTGGGACTGTGCTAG,0.194 z-score
GACGATTTCGGGATTCGAGACGTGCTA,2.55 z-score
GCAAATATATCAGTGAATTTGTGCTAG,0.74 z-score
GACCGTCTCCTACTGCTGACGTGCTAG,-0.267 z-score
TTTCCTTCCTCTTTTACCCCGTGCTAG,3.56 z-score
TTACGTCTCCTACTGCTTTAGTGCTAG,0.433 z-score
TCATCTCTGTTTTTGCTACTGTGCTAG,1.21 z-score
TTAGGTGTCCTTTCCCTTTAGTGCTAG,0.437 z-score
TGTGCTTTCCTGATGGTCCTGTGCTAG,0.185 z-score
TCATACCTCATCTTCCTCACTGTGCTA,0.396 z-score
CAGAGCATGGATCTGGGAACGTGCTAG,-0.695 z-score
TCAGTTCTGCTTCTTAGACTGTGCTAG,0.328 z-score
